Experimental data collected from several papers.
Compare with care: the assays were run in different laboratories.
Organism: Klebsiella pneumoniae

| Structure (SMILES) | test | system | conditions | MIC |
| --- | --- | --- | --- | --- |
| CC(=O)N[C@@H](CC(C)C)C(=O)N[C@@H](CCCCN)C(=O)N[C@@H](CC(C)C)C(=O)N[C@@H](CC(C)C)C(=O)N[C@@H](CCCCN)C(=O)N[C@@H](CCCCN)C(=O)N1CCC[C@H]1C(=O)N[C@@H](CC(C)C)C(=O)N[C@@H](CCCCN)C(=O)N[C@@H](CC(C)C)C(=O)N[C@@H](CC(C)C)C(=O)N[C@@H](CCCCN)C(N)=O | broth microdilution | ATCC 700603 | 18 h, 37 °C, compound alone | > 80 µM |
| COc1ccc2ccc(O)c(/C=N/[C@H]3CCCC[C@H]3/N=C/c3ccc(OCCN4CCCCC4)cc3O)c2c1 | bacterial growth, broth microdilution | carbapenem-resistant |  | > 40 µM |
| CC[C@H](C)[C@H](N)C(=O)N[C@@H](CCCNC(=N)N)C(=O)N[C@H](C(=O)N[C@@H](Cc1c[nH]c2ccccc12)C(=O)N[C@@H](Cc1ccccc1)C(=O)N[C@H](C(=O)N[C@@H](CCCCN)C(=O)N[C@H](C(=O)N[C@@H](CCCNC(=N)N)C(=O)N[C@@H](CCCCN)C(=O)N[C@@H](Cc1c[nH]c2ccccc12)C(=O)N[C@@H](CCCCN)C(=O)N[C@@H](C)C(=O)N[C@H](C(=O)N[C@@H](Cc1ccc(O)cc1)C(=O)N[C@@H](Cc1c[nH]cn1)C(=O)N[C@H](C(N)=O)[C@@H](C)O)[C@@H](C)CC)C(C)C)[C@@H](C)CC)C(C)C | broth dilution | ATCC 700603 |  | 50 µM |
| CC[C@H](C)[C@H](NC(=O)[C@H](C)NC(=O)[C@H](CCCNC(=N)N)NC(=O)[C@H](CCCNC(=N)N)NC(=O)[C@H](CCCNC(=N)N)NC(=O)[C@H](CCCNC(=N)N)NC(=O)[C@H](CCCNC(=N)N)NC(=O)[C@@H](N)CCCNC(=N)N)C(=O)N[C@@H](CO)C(=O)NCC(=O)N[C@@H](CO)C(=O)N[C@@H](CC(C)C)C(=O)N[C@H](C(=O)N[C@H](C(=O)N[C@@H](CC(C)C)C(=O)N[C@@H](Cc1ccccc1)C(=O)NCC(=O)N[C@@H](Cc1ccc(O)cc1)C(N)=O)[C@@H](C)O)C(C)C | broth microdilution | ATCC 13883 | highest value reported | 4 µM |
| CCCNc1nc(Cl)c2c(c1O)C(=O)C1=C(O)[C@]3(O)C(=O)C(C(N)=O)=C(O)[C@@H](N(C)C)[C@@H]3C[C@@H]1C2.Cl.Cl.Cl |  | tet(A)-carrying |  | 32 µg/mL |
| CC[C@H]1OC(=O)[C@H](C)[C@@H](O[C@H]2C[C@@](C)(OC)[C@@H](O)[C@H](C)O2)[C@H](C)[C@@H](O[C@@H]2O[C@H](C)C[C@H](N(C)C)[C@H]2O)[C@](C)(O)C[C@@H](C)C(=O)[C@H](C)[C@@H](O)[C@]1(C)O | broth microdilution | ATCC 43816 acrAB overexpressor | added: colistin 0.5 mg/L | 64 µg/mL |
| CC[C@H](C)[C@H](NC(=O)CN)C(=O)NCC(=O)N[C@@H](C)C(=O)N[C@H](C(=O)N[C@@H](CC(C)C)C(=O)N[C@@H](CCCCN)C(=O)N[C@H](C(=O)N[C@@H](CC(C)C)C(=O)N[C@H](C(=O)N[C@H](C(=O)NCC(=O)N[C@@H](CC(C)C)C(=O)N1CCC[C@H]1C(=O)N[C@@H](C)C(=O)N[C@@H](CC(C)C)C(=O)N[C@H](C(=O)N[C@@H](CO)C(=O)N[C@@H](Cc1c[nH]c2ccccc12)C(=O)N[C@H](C(=O)N[C@@H](CCCCN)C(=O)N[C@@H](CCCNC(=N)N)C(=O)N[C@@H](CCCCN)C(=O)N[C@@H](CCCNC(=N)N)C(=O)N[C@@H](CCC(N)=O)C(=O)N[C@@H](CCC(N)=O)C(N)=O)[C@@H](C)CC)[C@@H](C)CC)[C@@H](C)O)[C@@H](C)O)C(C)C)C(C)C |  | NCCP 15864 carbapenem-resistant |  | 16 µM |
| O=C(N[C@H](CO)[C@H](O)c1ccc([N+](=O)[O-])cc1)C(Cl)Cl | broth microdilution | ATCC 43816 acrAB overexpressor | added: colistin 0.5 mg/L | 4 µg/mL |
| CN1C(=O)Cc2ccc(F)c(CCNCC[C@H]3CN(c4ccc5c(n4)NC(=O)CO5)C(=O)O3)c21 |  | ATCC 13883 |  | 0.25 µg/mL |
| C[C@@H](O)[C@H]1C(=O)N2C(C(=O)O)=C(SCCN=CN)C[C@H]12 |  | KPC-2 parental strain K2(0787) |  | 128 µg/mL |

Some of these lines once more:
| Structure (SMILES) | test | system | conditions | MIC |
| --- | --- | --- | --- | --- |
| C[C@@H](O)[C@H]1C(=O)N2C(C(=O)O)=C(SCCN=CN)C[C@H]12 |  | KPC-2 parental strain K2(0787) |  | 128 µg/mL |
